Published values from different studies.
Protocols differ between the studies behind these lines. “And” joins repeats or separate records; there may be more than shown. Numbers after ± are the reported error.

| SMILES | test | test system | conditions | how to read | quantity | value |
| --- | --- | --- | --- | --- | --- | --- |
| O=C1CC[C@H](N2Cc3cc(N4CCN(CC5CCN(c6ccc([C@@H]7c8ccc(O)cc8CC[C@@H]7c7ccccc7)cc6)CC5)CC4)ccc3C2=O)C(=O)N1 | rapid equilibrium dialysis | human hepatocytes | 2.5 µM, 6 h |  | recovery | 116% |
| O=C(CCCN1CCC(O)(c2ccc(Cl)cc2)CC1)c1ccc(F)cc1 |  | male Hartley guinea pigs, anaesthetized | intravenous, 0.01 mg/kg over 10 min, after infusion |  | heart rate | 220 ± 0.5 beats/min |
| O=C(/C=C/c1ccc(O)c(O)c1)O[C@H]1[C@H](O)C[C@](O)(C(=O)O)C[C@H]1O |  | human CSF | concentration not given, mean |  | CSF concentration | not detected |
| CN[C@H](CC(C)C)C(=O)N[C@H]1C(=O)N[C@@H](CC(N)=O)C(=O)N[C@H]2C(=O)N[C@H]3C(=O)N[C@H](C(=O)N[C@H](C(=O)O)c4cc(O)cc(O)c4-c4cc3ccc4O)[C@H](O)c3ccc(c(Cl)c3)Oc3cc2cc(c3O[C@@H]2O[C@H](CO)[C@@H](O)[C@H](O)[C@H]2O[C@H]2C[C@](C)(N)[C@H](O)[C@H](C)O2)Oc2ccc(cc2Cl)[C@H]1O |  | poloxamer 407 hydrogel | pH 7.4, 37 °C, co-formulated with antibiotics |  | time to complete release | 8 h |
| CCCCCCCCN(Cc1ccccc1)Cc1ccc(CNC(=O)c2csc3nc[nH]c(=O)c23)cc1 | haemolysis | human red blood cells | 1 h, 37 °C |  | EC50 | > 100 µM |
| O=c1oc2cc(O)ccc2c2ccc(O)cc12 |  | human CSF | concentration not given, mean |  | CSF concentration | not detected |
| C[C@@H]1[C@H](O)[C@@H](C)/C=C/C=C/C=C/C=C/C=C/C=C/C=C/[C@H](O[C@@H]2O[C@H](C)[C@@H](O)[C@H](N)[C@@H]2O)C[C@@H]2O[C@](O)(C[C@@H](O)C[C@@H](O)[C@H](O)CC[C@@H](O)C[C@@H](O)CC(=O)O[C@H]1C)C[C@H](O)[C@H]2C(=O)O | calcein leakage | liposomes | 50 min, room temperature |  | EC50 | 7.1 µg/mL |
| CNC(=O)c1ccc(-c2cnc3ncc(Cc4ccc5ncccc5c4)n3n2)cc1F |  | Japanese patients | oral, 400 mg, grade 3/4 |  | AST increased patients | 2% |
| OC[C@H]1O[C@@H](c2ccc(Cl)c(Cc3ccc(O[C@H]4CCOC4)cc3)c2)[C@H](O)[C@@H](O)[C@@H]1O |  | Japanese type 1 diabetes patients, blood | 25 mg, day 28 | baseline: baseline | change in eGFR | -0.52 mL/min/1.73 m² |
| CN[C@H](CC(C)C)C(=O)N[C@H]1C(=O)N[C@@H](CC(N)=O)C(=O)N[C@H]2C(=O)N[C@H]3C(=O)N[C@H](C(=O)N[C@H](C(=O)O)c4cc(O)cc(O)c4-c4cc3ccc4O)[C@H](O)c3ccc(c(Cl)c3)Oc3cc2cc(c3O[C@@H]2O[C@H](CO)[C@@H](O)[C@H](O)[C@H]2O[C@H]2C[C@](C)(N)[C@H](O)[C@H](C)O2)Oc2ccc(cc2Cl)[C@H]1O | electrochemical aptamer sensor | male C57BL/6J mouse, thalamus | intravenous bolus, 35 mg/kg |  | absorption rate constant | 0.25 h⁻¹ |
| CNC(=O)c1cc(Oc2ccc(NC(=O)Nc3ccc(Cl)c(C(F)(F)F)c3)cc2)ccn1 |  | NOD-SCID mouse, serum | ip, 30 mg/kg |  | TBIL | 0.73 ± 0.32 mg/dL |
| O=C(O)CCC(=O)O.[2H]C([2H])([2H])Oc1cc(C)c2[nH]ccc2c1CN1CC[C@@H](C2CC2)C[C@H]1c1ccc(C(=O)O)cc1 | multiple ascending dose | healthy Chinese subjects | 300 mg once daily |  | subjects with increased creatinine TEAE | 0% |
| Cc1cc(-c2nnc(N)nc2-c2ccc(F)cc2)cc(Cl)n1 | item: decreased appetite, any grade | male IO-naive mCRPC patients | oral, dose not given |  | incidence of treatment-related AE | 13.8% |
| Cc1c(-c2ccc(N3CCc4cccc(C(=O)Nc5nc6ccccc6s5)c4C3)nc2C(=O)O)cnn1CC12CC3(C)CC(C)(C1)CC(OCCNCC[C@H](O)CO)(C3)C2 |  | anaesthetized male beagle dog | iv infusion, 0.1 mg/kg/min, 60 min |  | plasma concentration | < 4 ng/mL |
| Cc1cc(C)c(CNC(=O)c2cc(Cl)c3c(c2C)O[C@@](C)([C@H]2CC[C@H](N(C)C)CC2)O3)c(=O)[nH]1 |  | relapsed/refractory NHL patients | oral, 200 mg once daily, onset after cycle 1 day 1 |  | adverse event Diarrhea | 45.8% |
| CNc1ccc(-c2nc3ccc(O)cc3s2)cc1 [carbon-11 labelled] | ex vivo biodistribution | APP/PS1 Alzheimer mice, adipose | intravenous, 30 min |  | uptake | 0.507 ± 0.279 SUV |
| Oc1ccc(/C=C/c2cc(O)cc(O)c2)cc1 |  | rat, azoxymethane-injected, blood at sacrifice | 100 mg/kg |  | potassium | 3.6 mEq/L and 3 mEq/L and 2.9 mEq/L |
| COc1cc(N)c(Cl)cc1C(=O)NC1CCN(CCCOc2ccc(F)cc2)CC1OC (stereo not drawn) |  | male Hartley guinea pigs, anaesthetized | intravenous, 0.3 mg/kg group, baseline before infusion |  | heart rate | 221 ± 0.5 beats/min |

| SMILES | test | test system | conditions | how to read | quantity | value |
| --- | --- | --- | --- | --- | --- | --- |
| CCN1/C(=C/C(C)=O)Sc2ccc(F)cc21 |  | cynomolgus monkey | oral, 30 mg/kg, 2 h post-dose |  | PR interval | 88 ± 4 ms |
| C=CCN1CC(=O)N2[C@@H](Cc3ccc(O)cc3F)C(=O)N(Cc3cccc(N4CC(N5CCN(CC)CC5)C4)n3)C[C@@H]2N1C(=O)NCc1ccccc1 | item: Diarrhea | advanced solid tumour patients | all doses, dose-escalation part, any grade |  | treatment-related adverse events | 13.9% |
| Cc1cc(-c2nccc3c2ccn3CC(=O)Nc2ccc(-c3cnccn3)cn2)ccn1 |  | human | SAD part, single 40 mg dose |  | subjects with Dizziness TEAEs | 16.7% |
| CO[C@H]1/C=C/O[C@@]2(C)Oc3c(C)c(O)c4c(O)c(c(/C=N/N5CCN(C)CC5)c(O)c4c3C2=O)NC(=O)/C(C)=C\C=C\[C@H](C)[C@H](O)[C@@H](C)[C@@H](O)[C@@H](C)[C@H](OC(C)=O)[C@@H]1C |  | healthy human volunteers | oral, 600 mg, itraconazole cohort, together with: gepotidacin 1500 mg |  | incidence of any adverse event | 24% |
| COc1cc(C2=CCCc3c2ccc(OC)c3OC(C)c2cnc([N+](=O)[O-])n2C)cc(OC)c1OC (stereo not drawn) | non-enzymatic, no POR | phosphate buffer | 24 h, pH 7.4 |  | parent drug release | 0% |
| O=C(Nc1cnccc1Cl)N1CCN(Cc2ccc3c(c2)OC(F)(F)O3)CC1 | item: Headache | healthy elderly humans | 100 mg once daily, 10 days |  | volunteers with adverse event | 33.3% |
| C[C@H](CS)C(=O)N1CCC[C@H]1C(=O)O |  | male Hartley guinea pigs, anaesthetized | intravenous, 3 mg/kg over 10 min, after infusion |  | heart rate | 217 ± 0.4 beats/min |
| [18F]c1ccc(-c2ccc3c(c2)[nH]c2ccncc23)cn1 | ex vivo biodistribution | APP/PS1 Alzheimer mice, cecum | intravenous, 30 min |  | uptake | 0.469 ± 0.087 SUV |
| C[Si]1(C)O[Si](C)(C)O[Si](C)(C)O[Si](C)(C)O[Si](C)(C)O1 | regression | 1-octanol/water | 25 °C |  | log KOW | 8.09 |
| CN(CCC#N)C1CCN(C(=O)Cn2cc(NC(=O)c3cnn4cccnc34)c(-c3cc(Cl)ccc3OC(F)F)n2)CC1 |  | human, single ascending dose | 1.5 mg, day 4 | baseline: baseline | reticulocyte count change | 2.8 10⁹/L |
| COc1ccnc(C(=O)NCC(=O)O)c1O | FOCUS PEARL groundwater modelling | soil | geometric mean input |  | KOC | 388 mL/g |
| O=C(OC(C(F)(F)F)C(F)(F)F)N1CCN(Cc2cccc(Oc3ccccc3)c2)CC1 | PET blocking study | rhesus monkey, brain HIP | 0.3 mg/kg, compound pretreatment, together with: [18F]T-401 tracer |  | Ktrans | 0.0635 min⁻¹ |
| O=C(O)[C@H]1O[C@@H](Oc2c(-c3ccc(O)cc3)oc3cc(O)cc(O)c3c2=O)[C@H](O)[C@@H](O)[C@@H]1O |  | human CSF | concentration not given, mean |  | CSF concentration | not detected |
| CO[C@@H]1[C@H](OC(=O)N2CC(CCN3CCOCC3)C2)CC[C@]2(CO2)[C@H]1[C@@]1(C)O[C@@H]1CC=C(C)C |  | humans | subcutaneous, 1.8 mg twice weekly for 4 weeks, day 28 | baseline: baseline | systolic blood pressure | -0.7 ± 15.9 mmHg |
| CN(C(=O)n1cnc(-c2cccnc2)c1)C1CCCCC1 |  | Wistar rat, midbrain | oral, 10 mg/kg, 24 h, single dose |  | tissue concentration | 8.8 ± 0.3 ng/g |
| CO[C@H]1C[C@@H]2CC[C@@H](C)[C@@](O)(O2)C(=O)C(=O)N2CCCC[C@H]2C(=O)O[C@H]([C@H](C)C[C@@H]2CC[C@@H](OC(=O)NCCOCCOCCOCCOCCOCCOCCOCCOCCC(=O)N3CCc4cc(Cn5nc(-c6ccc7oc(N)nc7c6)c6c(N)ncnc65)ccc4C3)[C@H](OC)C2)C[C@@H](O)[C@H](C)/C=C(\C)[C@@H](O)[C@@H](OC)C(=O)[C@H](C)C[C@H](C)/C=C/C=C/C=C/1C |  | human, plasma | intravenous, 3 mg, cycle 1 day 15, arithmetic mean |  | AUC(0-t) | 155 ng·h/mL |
| NC(N)=NCCC[C@@H](N)C(=O)N[C@@H](CCCN=C(N)N)C(=O)N1CCC[C@H]1C(=O)N1C[C@H](O)C[C@H]1C(=O)NCC(=O)N[C@@H](Cc1cccs1)C(=O)N[C@@H](CO)C(=O)N1Cc2ccccc2C[C@@H]1C(=O)N1[C@H](C(=O)N[C@@H](CCCN=C(N)N)C(=O)O)C[C@@H]2CCCC[C@@H]21 | popPK base model typical value | human | subcutaneous, reference weight 70 kg |  | peripheral clearance (Q/F) | 0.397 L/h |
| CCOc1c([C@H](C)n2nc(C)c3c(N)ncnc32)cc(Cl)c(F)c1[C@@H]1CNC(=O)C1 |  | patients, monotherapy | oral, 5 mg once daily, cycle 1 day 1 |  | Tmax median | 2 h |

Some of these lines once more:
| SMILES | test | test system | conditions | how to read | quantity | value |
| --- | --- | --- | --- | --- | --- | --- |
| CO[C@H]1/C=C/O[C@@]2(C)Oc3c(C)c(O)c4c(O)c(c(/C=N/N5CCN(C)CC5)c(O)c4c3C2=O)NC(=O)/C(C)=C\C=C\[C@H](C)[C@H](O)[C@@H](C)[C@@H](O)[C@@H](C)[C@H](OC(C)=O)[C@@H]1C |  | healthy human volunteers | oral, 600 mg, itraconazole cohort, together with: gepotidacin 1500 mg |  | incidence of any adverse event | 24% |
| COc1cc(C2=CCCc3c2ccc(OC)c3OC(C)c2cnc([N+](=O)[O-])n2C)cc(OC)c1OC (stereo not drawn) | non-enzymatic, no POR | phosphate buffer | 24 h, pH 7.4 |  | parent drug release | 0% |
| O=C(Nc1cnccc1Cl)N1CCN(Cc2ccc3c(c2)OC(F)(F)O3)CC1 | item: Headache | healthy elderly humans | 100 mg once daily, 10 days |  | volunteers with adverse event | 33.3% |
| C[C@H](CS)C(=O)N1CCC[C@H]1C(=O)O |  | male Hartley guinea pigs, anaesthetized | intravenous, 3 mg/kg over 10 min, after infusion |  | heart rate | 217 ± 0.4 beats/min |
| [18F]c1ccc(-c2ccc3c(c2)[nH]c2ccncc23)cn1 | ex vivo biodistribution | APP/PS1 Alzheimer mice, cecum | intravenous, 30 min |  | uptake | 0.469 ± 0.087 SUV |
